# Results from different studies.
# Compare with care: the assays were run in different laboratories.
# UniProt P41143, sequence (whole entry, looked up): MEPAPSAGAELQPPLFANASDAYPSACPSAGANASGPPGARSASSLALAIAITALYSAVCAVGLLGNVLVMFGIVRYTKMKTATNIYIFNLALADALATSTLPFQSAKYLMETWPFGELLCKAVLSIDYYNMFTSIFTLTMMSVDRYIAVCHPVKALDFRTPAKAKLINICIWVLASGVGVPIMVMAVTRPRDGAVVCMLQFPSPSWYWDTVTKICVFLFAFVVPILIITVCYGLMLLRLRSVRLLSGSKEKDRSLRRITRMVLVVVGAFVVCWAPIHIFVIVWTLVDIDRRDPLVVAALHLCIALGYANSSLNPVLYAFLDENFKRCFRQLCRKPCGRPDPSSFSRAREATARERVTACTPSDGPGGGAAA
# UniProt Q8WXR4, sequence (whole entry, looked up): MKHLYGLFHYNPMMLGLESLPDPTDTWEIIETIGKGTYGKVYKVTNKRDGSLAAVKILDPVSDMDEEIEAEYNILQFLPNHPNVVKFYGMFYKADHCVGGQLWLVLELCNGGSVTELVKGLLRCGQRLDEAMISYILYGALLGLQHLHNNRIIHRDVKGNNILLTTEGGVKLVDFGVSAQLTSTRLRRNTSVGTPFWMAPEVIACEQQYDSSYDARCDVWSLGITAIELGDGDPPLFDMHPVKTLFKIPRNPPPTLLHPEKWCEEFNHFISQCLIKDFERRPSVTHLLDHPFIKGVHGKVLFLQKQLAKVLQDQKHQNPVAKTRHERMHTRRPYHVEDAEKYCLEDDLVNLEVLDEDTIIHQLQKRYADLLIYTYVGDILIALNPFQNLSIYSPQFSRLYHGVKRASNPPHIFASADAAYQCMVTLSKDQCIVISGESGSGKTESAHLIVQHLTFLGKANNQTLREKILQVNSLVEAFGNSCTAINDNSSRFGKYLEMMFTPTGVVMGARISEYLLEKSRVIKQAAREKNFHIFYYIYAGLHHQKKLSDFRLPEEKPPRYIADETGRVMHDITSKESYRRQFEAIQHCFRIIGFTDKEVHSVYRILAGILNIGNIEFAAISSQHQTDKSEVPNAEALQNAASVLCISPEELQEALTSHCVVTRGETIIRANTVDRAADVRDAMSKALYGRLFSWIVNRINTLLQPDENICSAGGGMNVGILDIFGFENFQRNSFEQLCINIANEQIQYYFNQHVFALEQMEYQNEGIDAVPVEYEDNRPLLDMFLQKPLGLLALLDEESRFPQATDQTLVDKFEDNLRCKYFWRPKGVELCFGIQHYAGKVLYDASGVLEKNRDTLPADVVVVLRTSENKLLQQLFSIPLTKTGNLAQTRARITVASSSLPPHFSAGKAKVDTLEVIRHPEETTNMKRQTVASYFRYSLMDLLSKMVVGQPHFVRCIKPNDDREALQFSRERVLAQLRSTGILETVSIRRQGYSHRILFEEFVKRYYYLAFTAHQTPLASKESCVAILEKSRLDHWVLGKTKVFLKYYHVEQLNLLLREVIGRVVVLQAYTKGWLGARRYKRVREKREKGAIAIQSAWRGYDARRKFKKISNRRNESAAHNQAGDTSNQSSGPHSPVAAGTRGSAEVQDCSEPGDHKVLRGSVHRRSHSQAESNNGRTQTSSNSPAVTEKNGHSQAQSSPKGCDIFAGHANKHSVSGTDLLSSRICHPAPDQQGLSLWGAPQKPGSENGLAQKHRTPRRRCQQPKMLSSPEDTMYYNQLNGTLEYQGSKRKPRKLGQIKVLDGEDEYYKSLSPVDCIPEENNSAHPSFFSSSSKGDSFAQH
# UniProt Q71U36, sequence (whole entry, looked up): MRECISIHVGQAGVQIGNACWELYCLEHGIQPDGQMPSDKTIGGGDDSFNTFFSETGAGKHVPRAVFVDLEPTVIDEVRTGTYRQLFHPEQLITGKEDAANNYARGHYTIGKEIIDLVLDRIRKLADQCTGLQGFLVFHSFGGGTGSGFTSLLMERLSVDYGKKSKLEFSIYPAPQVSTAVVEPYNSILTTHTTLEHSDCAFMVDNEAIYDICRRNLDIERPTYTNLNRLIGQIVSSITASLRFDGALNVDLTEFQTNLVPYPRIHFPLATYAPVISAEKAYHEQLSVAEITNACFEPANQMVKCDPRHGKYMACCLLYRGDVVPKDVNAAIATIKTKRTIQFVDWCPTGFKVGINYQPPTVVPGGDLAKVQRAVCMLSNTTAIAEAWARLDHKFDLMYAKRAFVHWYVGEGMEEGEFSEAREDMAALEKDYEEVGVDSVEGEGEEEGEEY
# UniProt P51681, sequence (whole entry, looked up): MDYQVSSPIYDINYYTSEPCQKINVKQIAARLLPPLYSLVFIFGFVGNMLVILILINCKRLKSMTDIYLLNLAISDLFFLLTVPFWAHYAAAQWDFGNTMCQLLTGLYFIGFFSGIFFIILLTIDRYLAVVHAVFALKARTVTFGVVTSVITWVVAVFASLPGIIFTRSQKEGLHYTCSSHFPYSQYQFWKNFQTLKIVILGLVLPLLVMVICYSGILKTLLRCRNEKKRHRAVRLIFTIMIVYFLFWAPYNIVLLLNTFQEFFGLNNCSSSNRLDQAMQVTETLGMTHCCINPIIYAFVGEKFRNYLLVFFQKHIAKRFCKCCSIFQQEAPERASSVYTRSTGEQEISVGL
SMILES,tested on,assay,test system,setting,scale,quantity,value
CO[C@H]1C[C@@H]2CC[C@@H](C)[C@@](O)(O2)C(=O)C(=O)N2CCCC[C@H]2C(=O)O[C@H]([C@H](C)C[C@@H]2CC[C@@H](OC(=O)NCCOCCOCCOCCOCCOCCOCCOCCOCCC(=O)N3CCc4cc(Cn5nc(-c6ccc7oc(N)nc7c6)c6c(N)ncnc65)ccc4C3)[C@H](OC)C2)C[C@@H](O)[C@H](C)/C=C(\C)[C@@H](O)[C@@H](OC)C(=O)[C@H](C)C[C@H](C)/C=C/C=C/C=C/1C,,,patients with advanced solid tumours,"intravenous, 1.6 mg/3 mg weekly, grade ≥3",,incidence of Headache TEAE,0%
C[C@@H](O)[C@H]1C(=O)N2C(C(=O)O)=C(SCCN=CN)C[C@H]12,Klebsiella pneumoniae,,K3,"at emergence of KPC-144, with: ceftazidime-avibactam 4/1",,MIC,32 µg/mL
CC(C)[C@H](NC(=O)[C@H](CCCNC(=N)N)NC(=O)[C@H](Cc1c[nH]c2ccccc12)NC(=O)[C@H](CCCNC(=N)N)NC(=O)[C@H](Cc1c[nH]c2ccccc12)NC(=O)[C@H](Cc1c[nH]c2ccccc12)NC(=O)[C@H](Cc1c[nH]c2ccccc12)NC(=O)[C@H](CCCNC(=N)N)NC(=O)[C@H](Cc1c[nH]c2ccccc12)NC(=O)[C@@H](N)CCCNC(=N)N)C(N)=O,Candida tropicalis,broth microdilution,"CGMCC 2.192, RPMI 1640-MOPS","48 h, 30 °C",,MIC,4 µM
CSCC[C@H](NC(=O)[C@H](CC(C)C)NC(=O)[C@@H](NC(=O)[C@H](Cc1ccccc1)NC(=O)[C@H](CCCCN)NC(=O)[C@H](CCCNC(=N)N)NC(=O)[C@@H](NC(=O)[C@H](Cc1ccc(O)cc1)NC(=O)[C@H](CCCNC(=N)N)NC(=O)[C@@H](N)CCCNC(=N)N)C(C)C)C(C)C)C(=O)N[C@@H](CCCNC(=N)N)C(=O)O,Micrococcus luteus,,NCTC 2665,,,MIC,50 µg/mL
CC(C)(C)OCC1NC(=O)C(C(=O)NC(C(=O)NC2C(=O)N3C2SC(C)(C)C3C(=O)O)c2ccccc2)=C1O (stereo not drawn),Escherichia coli,broth microdilution,Keio mutant JW2142-1,,,MIC,50 µg/mL
N=C(N)NCCC[C@H](NC(=O)[C@H](Cc1c[nH]c2ccccc12)NC(=O)[C@H](CCCNC(=N)N)NC(=O)[C@H](Cc1c[nH]c2ccccc12)NC(=O)[C@H](Cc1c[nH]c2ccccc12)NC(=O)[C@H](Cc1c[nH]c2ccccc12)NC(=O)[C@H](CCCNC(=N)N)NC(=O)[C@H](Cc1c[nH]c2ccccc12)NC(=O)[C@@H](N)CCCNC(=N)N)C(=O)N[C@@H](Cc1c[nH]c2ccccc12)C(N)=O,Candida albicans,broth microdilution,"CGMCC 2.209, RPMI 1640-MOPS","48 h, 30 °C, with: ZnCl2 8 µM",,MIC,16 µM
COc1cc2c(Oc3ccc4[nH]c(C)cc4c3F)ccnc2cc1OCC1(N)CC1,,,paediatric recurrent refractory sarcoma,10 mg,,grade 3 Fever,0%
CC1(C)SC2C(NC(=O)C(NC(=O)C3=C(O)C(Cc4ccc(F)cc4)NC3=O)c3ccccc3)C(=O)N2C1C(=O)O (stereo not drawn),Escherichia coli,broth microdilution,"isolate IU, CTX-M-14, TEM-1",no clavulanic acid,,MIC,> 200 µg/mL
CCOC(=O)CNC(=O)CO/N=c1\cc2n(-c3ccc(Cl)cc3)c3ccccc3nc-2cc1Nc1ccc(Cl)cc1,Neisseria gonorrhoeae,bacterial growth,"700825, streptomycin-resistant",24 h,,MIC,> 30 µM
CC(C)C[C@H](NC(=O)[C@H](CCCNC(=N)N)NC(=O)[C@H](Cc1c[nH]c2ccccc12)NC(=O)[C@H](CCCNC(=N)N)NC(=O)[C@H](Cc1c[nH]c2ccccc12)NC(=O)[C@H](Cc1c[nH]c2ccccc12)NC(=O)[C@H](Cc1c[nH]c2ccccc12)NC(=O)[C@H](CCCNC(=N)N)NC(=O)[C@H](Cc1c[nH]c2ccccc12)NC(=O)[C@@H](N)CCCNC(=N)N)C(N)=O,Candida albicans,broth microdilution,"CGMCC 2.209, RPMI 1640-MOPS","48 h, 30 °C",,MIC,8 µM
C[C@H]1CN(c2n[nH]c3nc(N[C@H]4CC[C@H](NS(=O)(=O)CCC(F)(F)F)CC4)ncc23)CCO1,"Tubulin alpha-1A chain (Homo sapiens, UniProt Q71U36)","Kinobeads competition, refers to: TUBA1A",,"0.032 µM, unit not given",reference: vehicle,remaining binding,1.02
CC1(C)S[C@@H]2[C@H](NC(=O)[C@H](N)c3ccccc3)C(=O)N2[C@H]1C(=O)O,Escherichia coli,broth microdilution,"ATCC 35218, low-level TEM-1",with: clavulanic acid 6 µg/mL,,MIC,50 µg/mL
CC[C@H](C)[C@@H]1NC(=O)[C@@H]2CCCN2C(=O)[C@H](CC(C)C)NC(=O)[C@H](CC(C)C)NC(=O)CNC(=O)[C@@H](NC(=O)[C@@H](NC(=O)[C@H](CC(=O)O)NC(=O)CNC(=O)[C@@H](NC(=O)[C@H](C)NC(=O)CNC(=O)[C@H](CCCCN)NC(=O)[C@H](CC(C)C)NC(=O)[C@H](CC(C)C)NC(=O)[C@H](CCCCN)NC(=O)CNC(=O)[C@@H](NC(=O)[C@@H](N)CC(C)C)C(C)C)C(C)C)C(C)C)CSSC[C@@H](C(=O)O)NC1=O,,"RNA-seq, refers to: Rassf4","mouse, traumatic brain injury model, frontal cortex and hippocampus",dose not given,reference: TBI alone,log2 fold change,-0.724
CC[C@H](C)CCCCC(=O)N[C@@H](CCN)C(=O)N[C@H](C(=O)N[C@@H](CCN)C(=O)N[C@H]1CCNC(=O)[C@H]([C@@H](C)O)NC(=O)[C@H](CCN)NC(=O)[C@H](CCN)NC(=O)[C@H](CC(C)C)NC(=O)[C@@H](Cc2ccccc2)NC(=O)[C@H](CCN)NC1=O)[C@@H](C)O,Micrococcus luteus,broth microdilution,ATCC 49732,"24 h, 37 °C",,MIC,2 µg/mL
CC1(C)SC2C(NC(=O)C(NC(=O)C3=C(O)C(c4ccccc4)NC3=O)c3ccccc3)C(=O)N2C1C(=O)O (stereo not drawn),Escherichia coli,broth microdilution,JW0790-2 fiu deletion mutant,ferric iron uptake gene,,MIC,25 µg/mL
C[C@]1(CO)Cc2ncn(-c3ccc(C#N)c(Cl)c3)c2C(=O)O1,,,human,"80 mg multiple doses, fasted",,subjects with any TEAE,77.8%
COc1ccc(N2C(=O)N(c3c(C)cccc3Cl)Cc3cnc(Nc4ccc(C5CCN(C)CC5)cc4OC)nc32)nc1,"Myosin-IIIb (MYO3B, Homo sapiens, UniProt Q8WXR4)",kinase activity,,0.5 µM,,inhibition,16%
COc1cc(Nc2ncc(F)c(Nc3ccc4c(n3)NC(=O)C(C)(C)O4)n2)cc(OC)c1OC,"CCR5 (Homo sapiens, UniProt P51681)",,,,,IC50,> 10 µM
O=C(O)CO/N=c1\cc2n(-c3ccc(Cl)cc3)c3ccccc3nc-2cc1Nc1ccc(Cl)cc1,Neisseria gonorrhoeae,bacterial growth,"700825, streptomycin-resistant",24 h,,MIC,3.75 µM
COc1cc(CCC[P+](c2ccccc2)(c2ccccc2)c2ccccc2)c(OC)c2c1OCO2.[I-],MCF7,SRB,,,,TGI,-4.89 log M
CN1CCN(c2cc(-c3ccncc3)c(-c3ccc4ccccc4c3)nn2)CC1,"OPRD1 (Homo sapiens, UniProt P41143)","antagonist, FLIPR",,10 µM,,inhibition,6.1%
CC[C@H](C)[C@H](NC(=O)[C@H](CCCNC(=N)N)NC(=O)[C@H](Cc1c[nH]c2ccccc12)NC(=O)[C@H](CCCNC(=N)N)NC(=O)[C@H](Cc1c[nH]c2ccccc12)NC(=O)[C@H](Cc1c[nH]c2ccccc12)NC(=O)[C@H](Cc1c[nH]c2ccccc12)NC(=O)[C@H](CCCNC(=N)N)NC(=O)[C@H](Cc1c[nH]c2ccccc12)NC(=O)[C@H](CCCNC(=N)N)NC(=O)CN)C(N)=O,Candida albicans,broth microdilution,"14936, RPMI 1640-MOPS","48 h, 30 °C",,MIC,8 µM
CC[C@H](C)CCCCC(=O)N[C@@H](CCN)C(=O)N[C@H](C(=O)N[C@@H](CCN)C(=O)N[C@H]1CCNC(=O)[C@H]([C@@H](C)O)NC(=O)[C@H](CCN)NC(=O)[C@H](CCN)NC(=O)[C@H](CC(C)C)NC(=O)[C@@H](Cc2ccccc2)NC(=O)[C@H](CCN)NC1=O)[C@@H](C)O,Micrococcus luteus,broth microdilution,ATCC 7468,24 h,,MIC,< 1 µM
CC(C)C[C@@H](NC(=O)[C@H](C)NC(=O)CNC(=O)[C@@H](NC=O)C(C)C)C(=O)N[C@@H](C)C(=O)N[C@@H](C(=O)N[C@H](C(=O)N[C@@H](C(=O)N[C@@H](Cc1c[nH]c2ccccc12)C(=O)N[C@H](CC(C)C)C(=O)N[C@@H](Cc1ccc2cc[nH]c2c1)C(=O)N[C@H](CC(C)C)C(=O)N[C@@H](Cc1c[nH]c2ccccc12)C(=O)N[C@H](CC(C)C)C(=O)N[C@@H](Cc1c[nH]c2ccccc12)C(=O)NCCO)C(C)C)C(C)C)C(C)C,Streptococcus agalactiae,broth microdilution,JCM 5671,,,MIC,2.1 µM
CC1(C)SC2C(NC(=O)C(NC(=O)C3=C(O)C(Cc4ccccc4)NC3=O)c3ccccc3)C(=O)N2C1C(=O)O (stereo not drawn),Escherichia coli,broth microdilution,Keio mutant JW5086-3,"18 h, ferrienterobactin permease gene",,MIC,12.5 µg/mL
N=C(N)NCCC[C@H](NC(=O)[C@H](Cc1c[nH]c2ccccc12)NC(=O)[C@H](CCCNC(=N)N)NC(=O)[C@H](Cc1c[nH]c2ccccc12)NC(=O)[C@H](Cc1c[nH]c2ccccc12)NC(=O)[C@H](Cc1c[nH]c2ccccc12)NC(=O)[C@H](CCCNC(=N)N)NC(=O)[C@H](Cc1c[nH]c2ccccc12)NC(=O)[C@H](CCCNC(=N)N)NC(=O)CN)C(N)=O,Candida albicans,broth microdilution,"CGMCC 2.209, RPMI 1640-MOPS","48 h, 30 °C",,MIC,4 µM
CC[C@H](C)[C@H](NC(=O)[C@H](CCCCN)NC(=O)[C@@H](NC(=O)[C@H](Cc1ccc(O)cc1)NC(=O)[C@H](CCCCN)NC(=O)[C@H](CCCCN)NC(=O)CNC(=O)[C@H](CCCCN)NC(=O)[C@@H](NC(=O)[C@H](C)NC(=O)[C@H](CC(C)C)NC(=O)[C@H](Cc1c[nH]c2ccccc12)NC(=O)CNC(=O)[C@@H](NC(=O)[C@H](Cc1ccccc1)NC(=O)[C@H](CCCCN)NC(=O)[C@H](CC(C)C)NC(=O)[C@H](Cc1ccccc1)NC(=O)[C@H](C)NC(=O)CNC(=O)[C@@H](N)CCSC)C(C)C)[C@@H](C)O)C(C)C)C(=O)N[C@@H](C)C(=O)N[C@@H](Cc1c[nH]c2ccccc12)C(=O)N[C@@H](CC(=O)O)C(=O)N[C@@H](Cc1c[nH]cn1)C(=O)N[C@@H](CCCCN)C(=O)NCC(=O)N[C@H](C(=O)N[C@H](C(=O)N[C@@H](CCSC)C(=O)N[C@@H](CCCCN)C(=O)N[C@@H](Cc1c[nH]c2ccccc12)C(=O)N[C@@H](CC(C)C)C(=O)N[C@@H](CC(N)=O)C(=O)N[C@@H](C)C(=O)NCC(=O)N[C@@H](CCC(N)=O)C(=O)N[C@H](C(=O)N[C@@H](Cc1ccccc1)C(=O)N[C@H](C(=O)N[C@@H](Cc1c[nH]c2ccccc12)C(=O)N[C@H](C(=O)N[C@@H](Cc1ccc(O)cc1)C(=O)N[C@@H](CCC(=O)O)C(=O)N[C@@H](CCC(N)=O)C(=O)N[C@H](C(=O)N[C@@H](CCCCN)C(=O)N[C@@H](CCCCN)C(=O)N[C@@H](CC(C)C)C(=O)N[C@@H](Cc1c[nH]c2ccccc12)C(=O)N[C@H](C(=O)O)[C@@H](C)O)[C@@H](C)CC)C(C)C)[C@@H](C)O)[C@@H](C)O)[C@@H](C)CC)[C@@H](C)O,Kocuria rhizophila,broth microdilution,CECT 241,37 °C,,MIC,2 µg/mL
